Measured values collected from several papers.
Protocols differ between the studies behind these lines.

Structure (SMILES) | assay | system | conditions | AUC(0-inf)
Cc1cc(N2CCC(C#N)(C3(C)CC3)C2=O)cc(C(=O)NCc2cc(F)cc(-c3cnn(C)c3)c2)n1 (racemic) | – | male Sprague-Dawley rat, plasma | intravenous, 0.9 mg/kg | 4.3 µM·h
CC(=O)Oc1c2c(c3ccc4c(c3c1OC(C)=O)C=CC(=O)C4(C)C)OC[C@@H]2C | – | female Sprague-Dawley rat, serum | intravenous, 10 mg/kg | 15900 ng·h/mL
CNC(=O)N[C@]1(C)CCC[C@@]2(C)C3CC[C@@]4(C)C[C@]3(CCC21)CC4=O (single isomer, unassigned) | – | male Sprague-Dawley rat, plasma | oral, 2 mg/kg | 72.9 ng·h/mL
CSCOC1C(=O)C2(C)C(OCSC)CC3OCC3(OC(C)=O)C2C(OC(=O)c2ccccc2)C2(O)CC(OC(=O)C(O)C(C=C(C)C)NC(=O)OC(C)(C)C)C(C)=C1C2(C)C (centres unmarked) | – | male Sprague-Dawley rat, plasma | intravenous, 2 mg/kg | 266 ng·h/mL
CC12CC3CC(C)(C1)CC(NC(=O)Nc1ccc(C(=O)N4CCCC(C(N)=O)C4)cc1)(C3)C2 (centres unmarked) | – | Sprague-Dawley rat, plasma | intravenous, 10 mg/kg | 10.2 µM·h
COc1cc(NC(C)=O)c2c(c1O)-c1c(OC)c(OC)cc3c1C(C2)N(C)CC3 (centres unmarked) | HPLC | male Wistar rat, plasma | intravenous, 100 mg/kg | 38800 ng·h/mL
Nc1nc(Cl)nc2c1ncn2Cc1cc(OCC(F)F)cc(OC(F)F)c1 | – | Sprague-Dawley rat, plasma | oral, 5 mg/kg | 23700 ng·h/mL
C[Si]1(C)CNC(=O)c2ccccc21 | – | rat, plasma | intravenous, 1 mg/kg, single dose | 574 ng·h/mL
Cn1cc(-c2cc(N3CCCCS3(=O)=O)ccc2N[C@H]2CC[C@H](C)CC2)c2cc[nH]c2c1=O (stereo in doubt) | – | Sprague-Dawley rat, plasma | oral, 3 mg/kg | 190 ng·h/mL
CN1CCN(c2ccc(Nc3ncc(Cl)c(Nc4ccccc4P(C)(C)=O)n3)cc2Br)CC1 | – | male Sprague-Dawley rat, plasma | oral, 25 mg/kg | 4910 ng·h/mL
O=C(N[C@@H](CC1CCCCC1)C(=O)N[C@@H](C[C@H]1CCNC1=O)C(=O)C(=O)NC1CC1)OCc1cccc(Cl)c1 | – | female Sprague-Dawley rat, plasma | intravenous, 10 mg/kg, single dose | 21000 ng·h/mL
Cn1cc(-c2cc(N3CCCS3(=O)=O)ccc2N[C@H]2CC[C@H](C)CC2)c2cc[nH]c2c1=O | – | Sprague-Dawley rat, plasma | oral, 3 mg/kg | 107 ng·h/mL
CC12CC3CC(C)(C1)CC(NC(=O)Nc1ccc(C(=O)N4CCC[C@H](C(N)=O)C4)cc1F)(C3)C2 | – | Sprague-Dawley rat, plasma | intravenous, 10 mg/kg | 3.96 µM·h
CCCN(c1ccc(C(=O)NCCC(=O)O)cc1)S(=O)(=O)c1cc(C)c(-c2ccc(C(C)(C)C)cc2)c(C)c1 | – | rat, plasma | oral, 5 mg/kg | 133 ng·h/mL

Repeated from above:
Structure (SMILES) | assay | system | conditions | AUC(0-inf)
Nc1nc(Cl)nc2c1ncn2Cc1cc(OCC(F)F)cc(OC(F)F)c1 | – | Sprague-Dawley rat, plasma | oral, 5 mg/kg | 23700 ng·h/mL
CC12CC3CC(C)(C1)CC(NC(=O)Nc1ccc(C(=O)N4CCCC(C(N)=O)C4)cc1)(C3)C2 (centres unmarked) | – | Sprague-Dawley rat, plasma | intravenous, 10 mg/kg | 10.2 µM·h
